Measurements pooled from the literature.
± gives the spread as reported.

SMILES	cell line	assay	conditions	IC50 [µM]
CO[C@@H]1[C@@H](O[C@@H]2O[C@H](C)[C@@H](O[C@H]3C[C@@](C)(O)[C@@H](OC(=O)CN(C)C)[C@H](C)O3)[C@H](N(C)C)[C@H]2O)[C@@H](CC=O)C[C@@H](C)[C@@H](O[C@H]2CC[C@H](N(C)C)[C@@H](C)O2)/C=C/C=C/C[C@@H](C)OC(=O)C[C@H]1O	GES1	cell growth or viability, CCK-8	72 h	> 50
OC[C@H]1[C@@H](O)[C@@H](O)CN1Cc1ccc(Br)cc1	CEM-DNR daunorubicin resistant	MTS	72 h	122 ± 22
CC1(C)CCC(CN2CCN(c3ccc(C(=O)NS(=O)(=O)c4ccc(NCC5COCCO5)c([N+](=O)[O-])c4)c(N4CCCOc5nc6[nH]ccc6cc54)c3)CC2)=C(c2ccc(Cl)cc2)C1 (centres unmarked)	primary human CLL cells	apoptosis	no stroma	8.1e-05
Fc1ccc2[nH]c(-c3cc4ccccc4nc3Cl)nc2c1	BEL-7404	cell growth or viability, MTT	48 h	> 100
COC(=O)[C@@H](Cc1cn(Cc2ccc(C#N)cc2)nn1)NC(=O)OCC1c2ccccc2-c2ccccc21	BXPC-3	cell growth or viability, MTS	72 h	9.16
CC[C@H](C)[C@H](N)C(=O)Nc1ccc2nc(Cc3c[nH]c4ccccc34)[nH]c2c1	NCI-H441	cell growth or viability, ATP luminescence	72 h	27.7
COc1ccc2nc(Cl)c(-c3nc4cc(Br)ccc4[nH]3)cc2c1	BEL-7404	cell growth or viability, MTT	48 h	11.3
CC(=O)[O][Pt]([Cl])([Cl])[O]C(C)=O.N.N	BXPC-3	cell growth or viability		36.6
COc1ccc2cc3[n+](cc2c1OCc1cn(Cc2cccc(Cl)c2)nn1)CCc1cc2c(cc1-3)OCO2	SMMC-7721	cell growth or viability, MTT		41.1
CCCC(CCC)C(=O)[O][Pt]([Cl])([Cl])[O]C(=O)C(CCC)CCC.N.N	BXPC-3	cell growth or viability		1.13
CC[C@H](C)[C@H](NC(=O)[C@H](Cc1ccc(OP(=O)(O)O)cc1)NC(=O)[C@H](CC(=O)O)NC(=O)[C@@H](N)CCCCN)C(=O)N[C@H](C(=O)N[C@@H](CC(C)C)C(=O)N[C@@H](CCCCNC(=O)CNC(=O)[C@H](CCCCN)NC(=O)[C@H](CCCNC(=N)N)NC(=O)[C@H](Cc1ccccc1)NC(=O)[C@H](CCCNC(=N)N)NC(=O)[C@H](CCCNC(=N)N)NC(=O)[C@H](CCCNC(=N)N)NC(=O)[C@H](CO)NC(=O)[C@H](Cc1ccc(O)cc1)NC(=O)[C@H](CO)NC(=O)[C@H](CC(C)C)NC(=O)[C@H](CCCNC(=N)N)NC(=O)[C@@H](N)CCCNC(=N)N)C(N)=O)C(C)C	HPAEC	ERK1/2 phosphorylation, inhibitor, Western blot	0.5 h pre-incubation, serum-free medium, together with: 1 ng/mL VEGF	16.1
CC1=CC(c2cccc(C(F)(F)F)c2)=[O+][Ru-]([Cl])[O]1.Cc1c(C)c(C)c(C)c(C)c1C	A2780cis, cisplatin-resistant	cell viability, MTT	72 h	6.7 ± 2
COc1ccc2cc3[n+](cc2c1OCc1cn(Cc2ccc(F)cc2Br)nn1)CCc1cc2c(cc1-3)OCO2	SMMC-7721	cell growth or viability, MTT		18.9
CC(C)C[C@H](NC(=O)[C@@H](Cc1c[nH]c2ccccc12)NC(=O)[C@H](Cc1ccc(O)cc1)NC(=O)[C@H](CO)NC(=O)[C@H](Cc1c[nH]c2ccccc12)NC(=O)[C@H](Cc1c[nH]cn1)NC(=O)[C@@H]1CCC(=O)N1)C(=O)N[C@@H](CCCNC(=N)N)C(=O)N1CCC[C@H]1C(=O)NCC(N)=O	WPE-1-NB26-3	cell growth, inhibitor, sulforhodamine B staining	four days	0.00017 ± 5e-05
C=C[CH2][Pd-]([Cl])[Cl].Cc1cc(C)c(-n2c[n+](-c3c(C)cc(C)cc3C)c3c2-c2cccc4cccc-3c24)c(C)c1	NTERA2	cell growth or viability	72 h, 3D culture	36
O=C(/C=C/c1ccc(O)cc1)OCCCC[P+](c1ccccc1)(c1ccccc1)c1ccccc1	L02	cell growth or viability, SRB	24 h	186
COc1ccc2cc3[n+](cc2c1OCc1cn(Cc2cccc(Br)c2)nn1)CCc1cc2c(cc1-3)OCO2	SMMC-7721	cell growth or viability, MTT		33.5
CCCCCCCCCCCCCCCCn1c(-c2cccnc2)nc(-c2ccc(C)cc2)c1-c1ccc(C)cc1	BT-474	cell growth or viability, SRB	24 h	> 100
Cc1cc(C)c(-n2c3c([n+](-c4c(C)cc(C)cc4C)[c]2[Cu-][Cl])-c2cccc4cccc-3c24)c(C)c1	NTERA2	cell growth or viability, MTT	72 h	4
CC(C)C[C@@H]1NC(=O)[C@H](Cc2c[nH]c3ccccc23)NC(=O)CNC(=O)[C@@H]2CCCN2C(=O)[C@H]2CCCN2C(=O)[C@H]([C@@H](C)O)NC1=O	BT-474	cell growth or viability, ATP luminescence	72 h	> 100
Cc1cc(C)c([N+]#[C][Pt-]([Cl])([Cl])=[C](Nc2cccc(CN[C](Nc3c(C)cc(C)cc3C)=[Au][Cl])c2)Nc2c(C)cc(C)cc2C)c(C)c1	MRC5	cell growth or viability		> 100
COc1c(O)cc2oc3c(Cl)c(O)c(CC=C(C)C)c(O)c3c(=O)c2c1CC=C(C)C	SMMC-7721	cell growth or viability	48 h	34.7
Cc1ccc2nc(Cl)c(-c3nc4cc(F)ccc4[nH]3)cc2c1	BEL-7404	cell growth or viability, MTT	48 h	> 100
N#Cc1cccc(-c2ccc(=O)n(Cc3cccc(-c4ncc(OCC5CCN(CC(=O)NCCOCCNc6ccc7c(c6)C(=O)N(C6CCC(=O)NC6=O)C7=O)CC5)cn4)c3)n2)c1 (centres unmarked)	EBC-1	cell growth or viability, CCK-8	72 h	0.00334
Clc1cc2nc(-c3cc4cc5c(cc4nc3Cl)OCO5)[nH]c2cc1Cl	L02	cell growth or viability, MTT	48 h	> 100

SMILES	cell line	assay	conditions	IC50 [µM]
N#Cc1cccc(-c2ccc(=O)n(Cc3cccc(-c4ncc(OCC5CCN(CCCC(=O)Nc6cccc7c6C(=O)N(C6CCC(=O)NC6=O)C7=O)CC5)cn4)c3)n2)c1 (centres unmarked)	EBC-1	cell growth or viability, CCK-8	72 h	0.0109
CCCCCCCCCCCCCCOC(=O)Nc1ccn([C@@H]2O[C@H](CO)[C@@H](O)C2(F)F)c(=O)n1	SU.86.86	cell growth or viability, MTT	48 h	5.73
COc1ccc2nc(Cl)c(-c3nc4cc(Cl)c(Cl)cc4[nH]3)cc2c1	L02	cell growth or viability, MTT	48 h	> 100
CCCCCCCCC=CCCCCCCCCn1c(-c2cccnc2)nc(-c2ccc(C)cc2)c1-c1ccc(C)cc1	BT-474	cell growth or viability, SRB	48 h	> 100
CC(=O)OC[C@H]1O[C@@H](NC(=O)/C=C/c2ccc(C(C)C)cc2)[C@H](OC(C)=O)[C@@H](OC(C)=O)[C@@H]1OC(C)=O	human T-lymphocyte	cell growth or viability	72 h	99
COc1cc(O)cc2c1-c1ccc(O)c(OC)c1CC2	BV-2	NO release, inhibitor, Griess	LPS-stimulated	6.69
CC(=O)OC[C@H]1O[C@@H](NC(=O)/C=C/c2ccc(-c3ccccc3)cc2)[C@H](OC(C)=O)[C@@H](OC(C)=O)[C@@H]1OC(C)=O	human T-lymphocyte	cell growth or viability	72 h	≥ 250
CC(C)N(C[C@H]1O[C@@H](n2cnc3c(N)ncnc32)[C@H](O)[C@@H]1O)C1CC2CN(Cc3cc(F)cc(Br)c3)CC2C1 (some centres unmarked)	H460 wild type	cell growth	72 h	> 100
CCOC(=O)CS/C(Nc1ccccc1)=C(\C#N)C(=O)Nc1nnc(NC(=O)c2ccccc2)s1	WI-38 fibroblasts		48 h	22.7 ± 3.8
N#Cc1cccc(-c2ccc(=O)n(Cc3cccc(-c4ncc(OCC5CCN(CCCCCCC(=O)Nc6cccc7c6C(=O)N(C6CCC(=O)NC6=O)C7=O)CC5)cn4)c3)n2)c1 (centres unmarked)	EBC-1	cell growth or viability, CCK-8	72 h	0.00563
C#CCOC(=O)C(CC)C1CCC(C)C(C(C)C(O)C(C)C(=O)C(CC)C2OC3(C=CC(O)C4(CCC(C)(C5CCC(O)(CC)C(C)O5)O4)O3)C(C)CC2C)O1 (centres unmarked)	ALL5	cell growth or viability, MTT	5 days	5.7
COc1ccc(C(C)(O)C(C)(C)C(=O)O)cc1 (centres unmarked)	LS174	cell growth or viability	72 h	> 200
CC/C(=C(\c1ccc(O)cc1)c1ccc(OCCN(C)CCOCCOCCOCCN(C)CCOc2ccc(/C(=C(/CC)c3ccccc3)c3ccc(O)cc3)cc2)cc1)c1ccccc1	MCF7 (ER-positive)	cell growth	96 h	0.11
COc1c(O)cc2oc3cc4c(c(O)c3c(=O)c2c1CC=C(C)C)C=CC(C)(C)O4	SMMC-7721	cell growth or viability	48 h	11.5
CCCn1c(-c2cccnc2)nc(-c2ccc(C)cc2)c1-c1ccc(C)cc1	BT-474	cell growth or viability, SRB	48 h	72.5
C#CCN(CC(=O)O[C@H]1[C@H](C)O[C@@H](O[C@H]2[C@H](N(C)C)[C@@H](O)[C@H](O[C@H]3[C@@H](CC=O)C[C@@H](C)[C@@H](O[C@H]4CC[C@H](N(C)C)[C@@H](C)O4)/C=C/C=C/C[C@@H](C)OC(=O)C[C@@H](O)[C@@H]3OC)O[C@@H]2C)C[C@@]1(C)O)Cc1ccc(C(F)(F)F)cc1	GES1	cell growth or viability, CCK-8	72 h	4.65
CN1CCCNC(=O)c2cccc(c2)C(=O)NCCCN(C)CCCNc2cccc3c2C(=O)c2cccc(c2C3=O)NCCC1	mouse bone marrow cells	cell proliferation, CCK-8	48 h	6.3
O=C(OCc1ccc(F)cc1)N(Cc1cccc(CN2CCCCC2)c1)[c-]1cccc1.[Fe+2].c1cc[cH-]c1	primary human CLL cells	cell viability, annexin V/7-AAD flow cytometry	48 h	4.8 ± 2
CCN(CC)CCCOc1ccc(-c2ccc3[nH]c4ncc(/C=C/c5ccccc5)cc4c3c2)cc1	Ba/F3 NPM-ALK	cell proliferation, [3H]-thymidine incorporation		0.54
Cc1ccc2nc(Cl)c(-c3nc4ccccc4[nH]3)cc2c1	BEL-7404	cell growth or viability, MTT	48 h	> 100
C#CCN(CC(=O)O[C@H]1[C@H](C)O[C@@H](O[C@H]2[C@H](N(C)C)[C@@H](O)[C@H](O[C@H]3[C@@H](CC=O)C[C@@H](C)[C@@H](O[C@H]4CC[C@H](N(C)C)[C@@H](C)O4)/C=C/C=C/C[C@@H](C)OC(=O)C[C@@H](O)[C@@H]3OC)O[C@@H]2C)C[C@@]1(C)O)C(=O)c1ccc(C(C)(C)C)cc1	GES1	cell growth or viability, CCK-8	72 h	2.28
CC(C)c1cccc(C(C)C)c1N=[C](NCc1cccc(N)c1)[AuH][Cl]	MRC5	cell growth or viability		> 100
CC(=O)OC[C@H]1O[C@@H](NC(=O)NC(=O)/C=C/c2ccc(-c3ccccc3)cc2)[C@H](OC(C)=O)[C@@H](OC(C)=O)[C@@H]1OC(C)=O	human T-lymphocyte	cell growth or viability	72 h	110
CN1CCN(/C=C/C(=O)c2ccc3[nH]c4ncc(-c5ccc(N6CCN(C)CC6)cc5)cc4c3c2)CC1	Ba/F3 NPM-ALK	cell proliferation, [3H]-thymidine incorporation		0.36
CC(=O)N[C@H](Cc1ccccc1)C(=O)N[C@@H](CC(=O)N[C@H](CCCNC(=N)N)C(N)=O)c1ccc2ccccc2c1	BT-474	cell growth or viability, ATP luminescence	72 h	0.595

Repeated from above:
SMILES	cell line	assay	conditions	IC50 [µM]
OC[C@H]1[C@@H](O)[C@@H](O)CN1Cc1ccc(Br)cc1	CEM-DNR daunorubicin resistant	MTS	72 h	122 ± 22
CC(=O)OC[C@H]1O[C@@H](NC(=O)/C=C/c2ccc(C(C)C)cc2)[C@H](OC(C)=O)[C@@H](OC(C)=O)[C@@H]1OC(C)=O	human T-lymphocyte	cell growth or viability	72 h	99
CN1CCCNC(=O)c2cccc(c2)C(=O)NCCCN(C)CCCNc2cccc3c2C(=O)c2cccc(c2C3=O)NCCC1	mouse bone marrow cells	cell proliferation, CCK-8	48 h	6.3
COc1ccc2cc3[n+](cc2c1OCc1cn(Cc2cccc(Br)c2)nn1)CCc1cc2c(cc1-3)OCO2	SMMC-7721	cell growth or viability, MTT		33.5
Cc1ccc2nc(Cl)c(-c3nc4cc(F)ccc4[nH]3)cc2c1	BEL-7404	cell growth or viability, MTT	48 h	> 100
O=C(/C=C/c1ccc(O)cc1)OCCCC[P+](c1ccccc1)(c1ccccc1)c1ccccc1	L02	cell growth or viability, SRB	24 h	186
C#CCN(CC(=O)O[C@H]1[C@H](C)O[C@@H](O[C@H]2[C@H](N(C)C)[C@@H](O)[C@H](O[C@H]3[C@@H](CC=O)C[C@@H](C)[C@@H](O[C@H]4CC[C@H](N(C)C)[C@@H](C)O4)/C=C/C=C/C[C@@H](C)OC(=O)C[C@@H](O)[C@@H]3OC)O[C@@H]2C)C[C@@]1(C)O)C(=O)c1ccc(C(C)(C)C)cc1	GES1	cell growth or viability, CCK-8	72 h	2.28
Fc1ccc2[nH]c(-c3cc4ccccc4nc3Cl)nc2c1	BEL-7404	cell growth or viability, MTT	48 h	> 100
